Assay results from different studies.
Compare with care: the assays were run in different laboratories. Several values in a cell are separate wells, animals, samples, runs or records. Numbers after ± are the reported error. Converted amounts (≈) assume the structure as drawn.

The MIC of CC(C)Oc1c(NC(=O)c2ccc(NC(=O)[C@H](CC(N)=O)NC(=O)c3cc(F)c(/N=N/c4c(Cl)cc(C#N)cc4Cl)c(F)c3)cc2)ccc(C(=O)N/N=C/c2c(F)cc(C(=O)O)cc2F)c1O is reported as greater than 6.4 µg/mL (Escherichia coli; BW25113; after 1 h irradiation at 365 nm).
O=C(NC1CCN(c2ncnc3[nH]cnc23)CC1)c1cccc(NS(=O)(=O)c2ccc(F)cc2)c1 gave an inhibition of 15% (HCoV-OC43; viral infection; concentration not given).
The EC50 ratio of O=c1c2ccc(Oc3ccc(OC(F)(F)F)cc3)cc2[nH]c2cc(F)cc(F)c12 is reported as 1.51 (Toxoplasma gondii; parasite growth; T222P mutant; reference: T222P over RH strain).
O=C(O)c1ccc(-c2cccc(C(=O)O)c2)cc1 — result for “MIC of ampicillin”: 128 µg/mL (Escherichia coli; bacterial growth, broth microdilution; expressing OXA-48; 128 µg/mL, added: ampicillin; MIC of ampicillin).
CCc1nc(N)nc(N)c1C#C[C@@H](C)c1cc(OC)cc(-c2ccncc2)c1 gave an MIC of 0.0391 µg/mL (≈ 0.105 µM) (Staphylococcus aureus; broth microdilution; ATCC 43300 MRSA; 18 h, 37 °C).
For Cc1ccc(S(=O)(=O)Nc2cccc(C(=O)NC3CCN(c4ncnc5[nH]cnc45)CC3)c2)cc1Cl, the inhibition was 62.4% (HCoV-OC43; viral infection; concentration not given).
Under “MIC of ampicillin”, O=S(=O)(O)c1ccc2c(c1)Cc1cc(S(=O)(=O)O)ccc1-2 is recorded as 256 µg/mL (Escherichia coli; bacterial growth, broth microdilution; expressing OXA-48; 8 µg/mL, added: ampicillin; MIC of ampicillin).
With CC(C)(C)c1ccc(C(=O)Nc2cc(Cl)c(F)cc2C(=O)O)cc1 the growth inhibition was 32 ± 11% (Trypanosoma brucei; bloodstream form, 90-13; 10 µM).
Nc1cc(S(=O)(=O)O)cc2cc(S(=O)(=O)O)cc(O)c12 — result for “MIC of ampicillin”: 128 µg/mL (Escherichia coli; bacterial growth, broth microdilution; expressing OXA-48; 256 µg/mL, added: ampicillin; MIC of ampicillin).
With O=C(CCN(CCC(=O)N[C@@H](Cc1c[nH]c2ccccc12)C(=O)O)C(=O)CCN(CCC(=O)N(CCC(=O)N[C@@H](Cc1c[nH]c2ccccc12)C(=O)O)CCC(=O)N[C@@H](Cc1c[nH]c2ccccc12)C(=O)O)C(=O)CCOCC(COCCC(=O)N(CCC(=O)N(CCC(=O)N[C@@H](Cc1c[nH]c2ccccc12)C(=O)O)CCC(=O)N[C@@H](Cc1c[nH]c2ccccc12)C(=O)O)CCC(=O)N(CCC(=O)N[C@@H](Cc1c[nH]c2ccccc12)C(=O)O)CCC(=O)N[C@@H](Cc1c[nH]c2ccccc12)C(=O)O)(COCCC(=O)N(CCC(=O)N(CCC(=O)N[C@@H](Cc1c[nH]c2ccccc12)C(=O)O)CCC(=O)N[C@@H](Cc1c[nH]c2ccccc12)C(=O)O)CCC(=O)N(CCC(=O)N[C@@H](Cc1c[nH]c2ccccc12)C(=O)O)CCC(=O)N[C@@H](Cc1c[nH]c2ccccc12)C(=O)O)COCCC(=O)N(CCC(=O)N(CCC(=O)N[C@@H](Cc1c[nH]c2ccccc12)C(=O)O)CCC(=O)N[C@@H](Cc1c[nH]c2ccccc12)C(=O)O)CCC(=O)N(CCC(=O)N[C@@H](Cc1c[nH]c2ccccc12)C(=O)O)CCC(=O)N[C@@H](Cc1c[nH]c2ccccc12)C(=O)O)N[C@@H](Cc1c[nH]c2ccccc12)C(=O)O the EC50 was 0.0017 ± 0.0002 µM (Enterovirus A71; viral replication; RD, B2 clinical isolate).
O=C(NC1CCN(c2ncnc3[nH]cnc23)CC1)c1cccc(NS(=O)(=O)c2ccc(Cl)cc2)c1 gave an inhibition of 19.9% (HCoV-OC43; viral infection; concentration not given).
With CO[C@H]1[C@H](O[C@H]([C@H]2O[C@@H](n3ccc(=O)[nH]c3=O)[C@H](O)[C@@H]2O)[C@H](NCCCNC(=O)[C@@H](NC(=O)[C@@H](NC(=O)N[C@H](C(=O)O)C(C)C)[C@@H]2CCNC(=N)N2)[C@@H](OC(=O)CCCCCCCCCCCCNC(=N)N)C(C)C)C(N)=O)O[C@H](CN)[C@H]1O the MIC was 0.08 µg/mL (≈ 0.0668 µM) (Mycobacterium spp.).
The hypocotyl length of CC(C)=C1CC[C@]23CO[C@H](C2)[C@@](O)(C(=O)O)CC[C@@H]13 is reported as 1.37 cm (Arabidopsis thaliana; Col-0, seedlings; 50 µg/mL, added: BCAA).
O=S(=O)(O)c1ccc(-c2ccc(S(=O)(=O)O)cc2)cc1 — result for “MIC of ampicillin”: 256 µg/mL (Escherichia coli; bacterial growth, broth microdilution; expressing OXA-48; 32 µg/mL, added: ampicillin; MIC of ampicillin).
For COc1cc(-c2cc(C)cc(C)c2)cc(C(C)C#Cc2c(C)nc(N)nc2N)c1 (racemic), the MIC was 3 µg/mL (≈ 7.76 µM) (Candida glabrata; Alamar Blue).
With Cc1ccc(S(=O)(=O)Nc2cccc(C(=O)NC3CCN(c4ncnc5[nH]cnc45)CC3)c2)cc1 the inhibition was 68.3% (HCoV-OC43; viral infection; concentration not given).
O=c1[nH]c2sc3c(c2c(=O)n1O)CCC3 gave an EC50 of 22 ± 4 µM (HIV-1; viral replication, MAGI; P4/R5).
CC(CCN[C@H](CN[C@H](CO)CN1CCC[C@H]1CN[C@H](CN)c1ccccc1)c1ccccc1)c1ccccc1 (some centres unmarked): “potentiation of amikacin” 2.6 fold (Klebsiella pneumoniae; bacterial growth; 24 µM, fold shift of IC90, added: amikacin).
With COc1cc(-c2ccccc2)cc(C(C)C#Cc2c(C)nc(N)nc2N)c1 (racemic) the MIC was 11.1 µg/mL (≈ 31 µM) (Candida glabrata; Alamar Blue).
For COCCCNc1cc(C(=O)NC2CC3CCC(C2)N3c2ccc(C(=O)NCc3ccccc3)cn2)ccc1C(N)=O (centres unmarked), the EC50 was 0.73 ± 0.15 µM (Plasmodium falciparum; SYBR Green I; 3D7; 72 h, asexual blood stage).
For CCc1nc(N)nc(N)c1C#CCc1cc(-c2ccncc2)ccc1OC, the MIC was greater than 20 µg/mL (Klebsiella pneumoniae; ATCC 10031; added: thymidine 20 µg/mL).
For NC[C@@H](NC[C@@H]1CCCN1C[C@@H](CO)NC[C@@H](NCCc1ccc(Cl)c(Cl)c1)c1ccccc1)c1ccccc1, “potentiation of amikacin” read 0.8 fold (Klebsiella pneumoniae; bacterial growth; 8 µM, fold shift of IC50, added: amikacin).
O=c1c2ccc(Oc3ccc(OC(F)(F)F)cc3)cc2[nH]c2cc(F)cc(Cl)c12 gave an EC50 ratio of 0.7 (Toxoplasma gondii; parasite growth; T222P mutant; reference: T222P over RH strain).
NC[C@@H](NC[C@@H]1CCCN1C[C@@H](CO)NC[C@@H](NCCC1CC2CCC1C2)c1ccccc1)c1ccccc1 (some centres unmarked) — result for “potentiation of amikacin”: 3.9 fold (Klebsiella pneumoniae; bacterial growth; 24 µM, fold shift of IC90, added: amikacin).
For O=S(=O)(O)c1ccc2cc(S(=O)(=O)O)ccc2c1, “MIC of ampicillin” read 32 µg/mL (Escherichia coli; bacterial growth, broth microdilution; expressing OXA-48; 256 µg/mL, added: ampicillin; MIC of ampicillin).
The IC50 of NC[C@@H](NC[C@@H]1CCCN1C[C@@H](CO)NC[C@@H](NCCc1ccc(-c2ccccc2)cc1)c1ccccc1)c1ccccc1 is reported as 12 µM and 11.7 µM (Acinetobacter baumannii; bacterial growth; compound alone).
Under “MIC of meropenem”, C[C@H](CS)C(=O)N[C@@H](Cc1c[nH]c2ccccc12)C(=O)O is recorded as 16 µg/mL (Enterobacter aerogenes; VIM-1 producing; 50 µM, added: meropenem).
For NC[C@@H](NC[C@@H]1CCCN1C[C@@H](CO)NC[C@@H](NCCC12CC3CC(CC(C3)C1)C2)c1ccccc1)c1ccccc1, the IC50 was greater than 24 µM (Klebsiella pneumoniae; bacterial growth; compound alone).
COc1ccc(S(=O)(=O)Nc2cccc(C(=O)NC3CCN(c4ncnc5[nH]cnc45)CC3)c2)cc1[N+](=O)[O-] gave an inhibition of 64.1% (HCoV-OC43; viral infection; concentration not given).

A few entries again:
For COCCCNc1cc(C(=O)NC2CC3CCC(C2)N3c2ccc(C(=O)NCc3ccccc3)cn2)ccc1C(N)=O (centres unmarked), the EC50 was 0.73 ± 0.15 µM (Plasmodium falciparum; SYBR Green I; 3D7; 72 h, asexual blood stage).
For CCc1nc(N)nc(N)c1C#CCc1cc(-c2ccncc2)ccc1OC, the MIC was greater than 20 µg/mL (Klebsiella pneumoniae; ATCC 10031; added: thymidine 20 µg/mL).
For NC[C@@H](NC[C@@H]1CCCN1C[C@@H](CO)NC[C@@H](NCCc1ccc(Cl)c(Cl)c1)c1ccccc1)c1ccccc1, “potentiation of amikacin” read 0.8 fold (Klebsiella pneumoniae; bacterial growth; 8 µM, fold shift of IC50, added: amikacin).
O=c1c2ccc(Oc3ccc(OC(F)(F)F)cc3)cc2[nH]c2cc(F)cc(Cl)c12 gave an EC50 ratio of 0.7 (Toxoplasma gondii; parasite growth; T222P mutant; reference: T222P over RH strain).
